Assay results of several laboratories.
Each line is one published result; not all experiments were run side by side. Values joined by “and” are separate records of one study, mostly repeats; a detail may differ. Numbers after ± are the reported error.
Genome polyprotein NS3 helicase domain: Genome polyprotein, NS3 helicase domain (Hepatitis C virus genotype 1b, UniProt Q9WMX2)
WD repeat-containing protein 91 WD40 domain, residues 392–747: WD repeat-containing protein 91, WD40 domain, residues 392–747 (Homo sapiens, UniProt A4D1P6)
UniProt A4D1P6, sequence (whole entry, looked up): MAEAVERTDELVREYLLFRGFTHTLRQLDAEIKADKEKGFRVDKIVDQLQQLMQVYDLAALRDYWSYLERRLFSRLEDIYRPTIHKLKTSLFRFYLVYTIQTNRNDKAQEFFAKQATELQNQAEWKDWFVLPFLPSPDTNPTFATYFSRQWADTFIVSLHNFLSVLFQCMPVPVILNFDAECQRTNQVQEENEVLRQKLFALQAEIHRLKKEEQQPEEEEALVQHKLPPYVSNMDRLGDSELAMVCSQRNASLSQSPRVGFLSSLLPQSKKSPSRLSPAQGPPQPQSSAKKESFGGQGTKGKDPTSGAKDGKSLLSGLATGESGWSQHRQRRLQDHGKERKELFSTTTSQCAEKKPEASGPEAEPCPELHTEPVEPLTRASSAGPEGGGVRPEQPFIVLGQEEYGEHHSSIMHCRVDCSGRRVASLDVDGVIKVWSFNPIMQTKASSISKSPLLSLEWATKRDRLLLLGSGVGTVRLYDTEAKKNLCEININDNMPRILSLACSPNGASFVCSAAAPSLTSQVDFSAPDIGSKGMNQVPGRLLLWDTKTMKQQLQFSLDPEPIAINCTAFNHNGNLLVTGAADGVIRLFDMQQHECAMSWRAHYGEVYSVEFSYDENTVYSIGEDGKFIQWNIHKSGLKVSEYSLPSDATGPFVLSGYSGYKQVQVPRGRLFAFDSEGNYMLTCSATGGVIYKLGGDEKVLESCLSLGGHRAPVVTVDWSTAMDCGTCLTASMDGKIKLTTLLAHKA
ESR1: Estrogen receptor (ESR1, Homo sapiens, UniProt P03372)
UniProt P03372, sequence (whole entry, unmodified, looked up): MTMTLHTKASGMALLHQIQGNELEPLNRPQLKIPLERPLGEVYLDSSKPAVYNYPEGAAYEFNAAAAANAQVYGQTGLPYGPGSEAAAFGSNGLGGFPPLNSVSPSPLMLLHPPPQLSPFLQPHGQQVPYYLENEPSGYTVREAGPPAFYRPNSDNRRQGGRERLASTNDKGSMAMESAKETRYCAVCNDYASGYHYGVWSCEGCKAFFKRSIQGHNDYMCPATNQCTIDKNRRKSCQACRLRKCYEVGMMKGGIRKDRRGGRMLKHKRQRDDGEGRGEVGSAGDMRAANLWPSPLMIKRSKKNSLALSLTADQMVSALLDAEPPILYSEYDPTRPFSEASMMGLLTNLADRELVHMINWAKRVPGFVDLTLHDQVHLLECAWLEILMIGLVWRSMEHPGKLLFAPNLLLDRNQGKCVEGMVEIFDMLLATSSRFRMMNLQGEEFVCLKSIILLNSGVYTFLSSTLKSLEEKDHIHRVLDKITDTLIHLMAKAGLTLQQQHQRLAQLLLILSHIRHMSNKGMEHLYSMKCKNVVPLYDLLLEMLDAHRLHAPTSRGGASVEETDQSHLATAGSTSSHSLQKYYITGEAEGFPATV
T1: ssDNA, aptamer; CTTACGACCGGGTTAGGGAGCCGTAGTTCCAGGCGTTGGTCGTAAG
UniProt O76090, sequence (whole entry, unmodified, looked up): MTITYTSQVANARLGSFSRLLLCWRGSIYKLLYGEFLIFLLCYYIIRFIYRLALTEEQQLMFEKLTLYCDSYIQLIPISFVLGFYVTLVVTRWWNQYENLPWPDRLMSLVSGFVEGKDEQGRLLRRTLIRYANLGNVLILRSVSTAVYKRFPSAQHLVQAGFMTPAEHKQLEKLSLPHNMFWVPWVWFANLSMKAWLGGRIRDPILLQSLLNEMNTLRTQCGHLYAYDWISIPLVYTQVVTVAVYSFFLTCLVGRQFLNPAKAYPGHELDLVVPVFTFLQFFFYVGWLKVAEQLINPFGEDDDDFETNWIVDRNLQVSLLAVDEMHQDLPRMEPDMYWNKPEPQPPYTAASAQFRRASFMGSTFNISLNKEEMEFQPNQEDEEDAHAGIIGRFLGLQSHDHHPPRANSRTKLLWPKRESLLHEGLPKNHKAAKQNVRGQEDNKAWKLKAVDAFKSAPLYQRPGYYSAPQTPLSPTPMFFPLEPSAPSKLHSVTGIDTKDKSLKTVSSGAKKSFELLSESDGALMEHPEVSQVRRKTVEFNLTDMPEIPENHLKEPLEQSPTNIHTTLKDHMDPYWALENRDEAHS
UniProt P51575, sequence (whole entry, unmodified, looked up): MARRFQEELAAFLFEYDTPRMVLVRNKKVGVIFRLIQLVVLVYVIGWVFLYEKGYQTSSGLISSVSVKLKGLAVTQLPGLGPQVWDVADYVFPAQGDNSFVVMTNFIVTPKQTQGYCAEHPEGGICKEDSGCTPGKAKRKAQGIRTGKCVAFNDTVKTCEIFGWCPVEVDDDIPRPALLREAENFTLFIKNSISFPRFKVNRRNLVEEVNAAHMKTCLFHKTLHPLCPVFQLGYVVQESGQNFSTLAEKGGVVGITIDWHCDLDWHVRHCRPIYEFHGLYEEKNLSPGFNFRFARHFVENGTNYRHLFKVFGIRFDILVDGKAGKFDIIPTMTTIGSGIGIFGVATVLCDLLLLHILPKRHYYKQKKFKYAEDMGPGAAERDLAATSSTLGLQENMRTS
UniProt Q92570, sequence (whole entry, looked up): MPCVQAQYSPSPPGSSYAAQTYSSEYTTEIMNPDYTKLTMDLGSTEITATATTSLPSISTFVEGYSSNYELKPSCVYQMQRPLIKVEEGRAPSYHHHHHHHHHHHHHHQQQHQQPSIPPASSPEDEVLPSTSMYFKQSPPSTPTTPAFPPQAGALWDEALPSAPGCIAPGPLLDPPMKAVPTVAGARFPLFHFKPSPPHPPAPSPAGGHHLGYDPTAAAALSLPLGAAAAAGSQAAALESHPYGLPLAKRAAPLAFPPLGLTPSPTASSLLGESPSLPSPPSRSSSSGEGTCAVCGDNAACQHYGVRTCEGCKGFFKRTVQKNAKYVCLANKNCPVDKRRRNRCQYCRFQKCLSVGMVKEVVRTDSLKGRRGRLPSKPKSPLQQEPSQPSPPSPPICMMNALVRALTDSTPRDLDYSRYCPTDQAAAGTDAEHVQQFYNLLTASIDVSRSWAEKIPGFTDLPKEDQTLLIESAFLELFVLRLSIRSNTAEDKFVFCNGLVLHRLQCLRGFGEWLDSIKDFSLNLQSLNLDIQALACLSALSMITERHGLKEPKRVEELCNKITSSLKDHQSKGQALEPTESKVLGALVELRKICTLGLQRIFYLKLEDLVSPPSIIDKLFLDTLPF
UniProt P36544, sequence (whole entry, looked up): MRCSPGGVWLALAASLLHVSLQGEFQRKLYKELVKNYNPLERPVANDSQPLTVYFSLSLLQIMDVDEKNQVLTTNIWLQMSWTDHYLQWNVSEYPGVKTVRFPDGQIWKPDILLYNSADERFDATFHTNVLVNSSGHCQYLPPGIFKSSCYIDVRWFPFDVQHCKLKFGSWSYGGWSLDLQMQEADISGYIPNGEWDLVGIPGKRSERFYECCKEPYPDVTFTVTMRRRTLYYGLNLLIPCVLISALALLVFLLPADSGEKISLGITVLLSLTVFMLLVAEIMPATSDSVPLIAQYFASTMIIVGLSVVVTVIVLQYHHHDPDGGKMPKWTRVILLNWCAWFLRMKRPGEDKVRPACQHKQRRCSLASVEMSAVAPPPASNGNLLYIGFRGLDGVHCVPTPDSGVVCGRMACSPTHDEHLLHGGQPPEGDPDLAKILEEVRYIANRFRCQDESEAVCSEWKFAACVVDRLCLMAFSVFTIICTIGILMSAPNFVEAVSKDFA
UniProt P11388, sequence (whole entry, looked up): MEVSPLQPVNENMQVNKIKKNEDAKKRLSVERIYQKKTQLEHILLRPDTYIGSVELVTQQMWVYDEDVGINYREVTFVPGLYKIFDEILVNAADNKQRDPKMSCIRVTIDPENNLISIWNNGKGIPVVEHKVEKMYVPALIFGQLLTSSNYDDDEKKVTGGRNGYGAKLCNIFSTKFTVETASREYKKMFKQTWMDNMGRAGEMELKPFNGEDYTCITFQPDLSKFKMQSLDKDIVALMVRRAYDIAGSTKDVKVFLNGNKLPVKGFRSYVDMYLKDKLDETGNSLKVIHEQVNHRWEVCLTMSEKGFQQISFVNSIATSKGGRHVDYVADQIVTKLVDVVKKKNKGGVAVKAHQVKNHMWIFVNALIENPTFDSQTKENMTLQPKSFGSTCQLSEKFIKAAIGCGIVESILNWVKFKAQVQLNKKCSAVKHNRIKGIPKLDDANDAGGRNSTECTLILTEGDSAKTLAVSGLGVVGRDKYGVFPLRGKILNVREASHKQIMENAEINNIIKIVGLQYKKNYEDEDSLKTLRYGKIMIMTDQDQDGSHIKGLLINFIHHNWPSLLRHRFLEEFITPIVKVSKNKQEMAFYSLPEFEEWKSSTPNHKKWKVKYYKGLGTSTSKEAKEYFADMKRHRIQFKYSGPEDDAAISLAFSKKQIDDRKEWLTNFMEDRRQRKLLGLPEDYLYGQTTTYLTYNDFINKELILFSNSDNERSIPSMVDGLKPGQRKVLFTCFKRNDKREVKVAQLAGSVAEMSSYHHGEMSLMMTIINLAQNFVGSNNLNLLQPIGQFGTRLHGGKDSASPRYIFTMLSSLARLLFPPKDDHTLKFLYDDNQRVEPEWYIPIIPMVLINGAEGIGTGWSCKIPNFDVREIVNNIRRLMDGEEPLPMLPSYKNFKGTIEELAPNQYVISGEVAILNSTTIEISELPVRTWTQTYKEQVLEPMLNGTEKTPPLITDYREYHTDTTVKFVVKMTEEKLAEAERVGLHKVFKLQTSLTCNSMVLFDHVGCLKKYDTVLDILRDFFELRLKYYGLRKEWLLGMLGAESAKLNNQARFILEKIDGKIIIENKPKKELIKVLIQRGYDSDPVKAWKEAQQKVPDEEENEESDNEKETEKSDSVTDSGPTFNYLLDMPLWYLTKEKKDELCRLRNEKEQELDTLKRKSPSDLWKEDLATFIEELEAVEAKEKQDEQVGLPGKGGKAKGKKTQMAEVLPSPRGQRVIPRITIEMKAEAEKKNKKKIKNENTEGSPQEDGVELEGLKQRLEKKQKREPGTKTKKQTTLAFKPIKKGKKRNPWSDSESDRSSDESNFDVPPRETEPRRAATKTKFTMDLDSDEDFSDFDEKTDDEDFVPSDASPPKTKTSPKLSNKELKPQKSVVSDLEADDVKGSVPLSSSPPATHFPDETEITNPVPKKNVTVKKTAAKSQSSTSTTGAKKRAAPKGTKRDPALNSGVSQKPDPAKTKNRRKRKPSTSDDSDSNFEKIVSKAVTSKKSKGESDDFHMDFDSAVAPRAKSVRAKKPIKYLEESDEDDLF

SMILES = N[C@@H](Cc1c[nH]c2ccccc12)C(=O)O; target = Genome polyprotein NS3 helicase domain; test = DNA binding, inhibitor; test system = hepatitis C virus; conditions = 100 µM, with: Cy5-dT15 DNA; endpoint = inhibition; result = 2%
SMILES = COc1ccc(C(=O)N2CCC(C#N)CC2)cc1OC1CCN(C)CC1; target = WD repeat-containing protein 91 WD40 domain, residues 392–747; test = binding, SPR single-concentration screen; conditions = 45 µM; endpoint = SPR response; result = -5.4 RU and -2.1 RU
SMILES = COc1cc(/C=C2\CCC/C(=C\c3ccc(O)c(OC)c3)C2=O)ccc1O; target = haemin; test = binding, isothermal titration calorimetry; conditions = pH 7.4, 37 °C; endpoint = ΔH; result = -23.76 ± 0.0669 kcal/mol
SMILES = C=C1CN(S(=O)(=O)c2ccc(C)cc2)CCCN(Cc2ccccc2)CCCN(S(=O)(=O)c2ccc(C)cc2)C1; target = Protein transport protein Sec61 subunit alpha isoform 1 (Homo sapiens, UniProt P61619); test = item: control signal peptide-FLuc reporter; test system = HEK293; conditions = 0.37 mM, 6 h; endpoint = FLuc/RLuc ratio; result = 1.03
SMILES = Nc1ncnc2c1ncn2[C@@H]1O[C@H](COP(=O)(O)OP(=O)(O)OP(=O)(O)O)[C@@H](O)[C@H]1O; target = T1, ssDNA, aptamer; test = ITC; endpoint = Kd; result = 721 nM
SMILES = CC(=O)N[C@H](C(=O)N[C@@H](CC(N)=O)C(=O)N[C@@H](CCCCN)C(=O)N1CCC[C@H]1C(=O)N[C@@H](CC(C)C)C(=O)N1CCC[C@H]1C(=O)N1CCC[C@H]1C(=O)N[C@@H](CC(C)C)C(=O)N1CCC[C@H]1C(=O)N[C@H](C(=O)N[C@@H](C)C(N)=O)C(C)C)C(C)C; target = Tyrosine-protein kinase Fyn, SH3 domain (FYN, Homo sapiens, UniProt P06241); test = ligand binding, FTIR spectroscopy, item: asymmetric stretch band C; conditions = pH 7.0, FYN complex, with: 4 mM peptide; endpoint = wavenumber; result = 2257.7 ± 0.4 cm⁻¹
SMILES = O=C1CC2(CCCC2)CC(=O)N1CCCCN1CCN(c2ncccn2)CC1; target = Genome polyprotein NS3 helicase domain; test = DNA binding, inhibitor; test system = hepatitis C virus; conditions = 100 µM, with: Cy5-dT15 DNA; endpoint = inhibition; result = 0%
SMILES = CCS(=O)(=O)N1CC(CC#N)(n2cc(-c3ncnc4[nH]ccc34)cn2)C1; target = ORM1 (Homo sapiens, UniProt P02763); test = fluorescence quenching; conditions = 298 K; endpoint = bimolecular quenching constant; result = 5.55e+12 ± 5.1e+11 M⁻¹ s⁻¹
SMILES = COc1ccc(-c2cc(=O)c3c(O)c(OC)c(OC)c(OC)c3o2)cc1OC; target = ESR1; test = array formation; test system = PRL-HeLa; scale = reference: EC50 ERβ over EC50 ERα; endpoint = selectivity ratio; result = 0.655
SMILES = CC1(C)CC2(C)OC(=O)NC2(C)c2ccccc21 (centres unmarked); target = SPRY domain-containing SOCS box protein 2, SPRY domain (Homo sapiens, UniProt Q99619); test = binding, affinity selection mass spectrometry; scale = reference: other proteins in batch; endpoint = log fold enrichment; result = 0.0412
SMILES = N#Cc1cccc2c1CC[C@H]2NC(=O)c1ccc(CNc2cccc3c2CCCC3)cc1; target = WD repeat-containing protein 91 WD40 domain, residues 392–747; test = binding, SPR single-concentration screen; conditions = 45 µM; endpoint = SPR response; result = 3.8 RU and -3.3 RU
SMILES = CCCN1C[C@H](CSC)C[C@@H]2c3cccc4[nH]cc(c34)C[C@H]21; target = Glutamate receptor 2 (Homo sapiens, UniProt P42262); test = ion current, positive allosteric modulator, SyncroPatch patch clamp; test system = HEK293; conditions = 10 µM; endpoint = potentiation; result = 96%
SMILES = N#CC1CCN(C(=O)c2ccc(SCc3nc4ccccc4[nH]3)cc2)CC1; target = WD repeat-containing protein 91 WD40 domain, residues 392–747; test = SPR; conditions = 45 µM; endpoint = binding; result = 0% and -7%
SMILES = CCC(=O)NS(=O)(=O)c1ccc(-c2c(-c3ccccc3)noc2C)cc1; target = Nuclear receptor subfamily 4 group A member 3, ligand-binding domain (Homo sapiens, UniProt Q92570); test = reporter gene, Gal4 hybrid reporter; conditions = 50 µM; scale = reference: vehicle; endpoint = activation; result = 0.37 fold
SMILES = CN1C(=O)C(c2c(-c3ccc(Cl)cc3)[nH]c3c2c(=O)[nH]c(=O)n3C)c2ccccc21 (centres unmarked); target = WD repeat-containing protein 91 (Homo sapiens, UniProt A4D1P6); test = binding, SPR steady state; conditions = 7.5 µM; endpoint = SPR response; result = 28.5 RU
SMILES = CC[C@H](C)[C@H](NC(=O)[C@H](CCCCN)NC(=O)CNC(=O)[C@@H](NC(=O)[C@@H](NC(=O)[C@H](CCSC)NC(=O)[C@H](Cc1c[nH]cn1)NC(=O)CN)[C@@H](C)O)C(C)C)C(=O)N[C@@H](Cc1ccc(O)cc1)C(=O)N[C@@H](C)C(=O)N[C@@H](C)C(=O)N[C@@H](CCSC)C(=O)N[C@@H](CCSC)C(=O)N[C@@H](C)C(=O)N[C@@H](CCSC)C(=O)N[C@@H](CCC(=O)O)C(=O)N[C@@H](Cc1ccc(O)cc1)C(=O)N[C@@H](Cc1ccc(O)cc1)C(=O)N[C@@H](CCCNC(=N)N)C(=O)N[C@@H](CCC(N)=O)C(=O)N[C@@H](CO)C(=O)N[C@@H](CCCCN)C(=O)N[C@@H](C)C(=O)N[C@@H](CCCCN)C(=O)N[C@@H](CCCCN)C(=O)N[C@@H](CC(C)C)C(=O)N[C@@H](CCC(N)=O)C(=O)N[C@@H](C)C(=O)N[C@@H](CCSC)C(=O)N[C@@H](CCCNC(=N)N)C(=O)O; target = Calmodulin-1, Ca2+-bound N-lobe (CALM1, Homo sapiens, UniProt P0DP23); test = binding, isothermal titration calorimetry; conditions = N-lobe, CaV2.1 IQ domain, unit not given, with: Ca2+; scale = reference: wild-type IQ domain; endpoint = ΔΔG; result = 0.55
SMILES = Brc1ccc([C@H]2CN3CCSC3=N2)cc1.O=C(O)C(=O)O; target = Genome polyprotein NS3 helicase domain; test = DNA binding, inhibitor; test system = hepatitis C virus; conditions = 100 µM, with: Cy5-dT15 DNA; endpoint = inhibition; result = 0%
SMILES = CC[C@H](C)[C@H](NC(=O)[C@H](CCC(=O)O)NC(=O)[C@H](CCC(=O)O)NC(=O)[C@@H]1CCCN1C(=O)[C@H](CC(=O)O)NC(=O)[C@H](C)NC(=O)[C@H](CCC(N)=O)NC(=O)[C@@H](NC(=O)[C@H](C)NC(=O)[C@@H](NC(=O)[C@H](CO)NC(=O)[C@@H](NC(=O)[C@H](CCCCN)NC(=O)[C@@H](N)Cc1ccc(O)cc1)[C@@H](C)O)C(C)C)[C@@H](C)O)C(=O)N[C@H](C(=O)N[C@H](C(=O)N[C@@H](CC(C)C)C(=O)N[C@@H](CC(=O)O)C(=O)N[C@@H](CC(=O)O)C(=O)N[C@@H](CC(=O)O)C(=O)N[C@@H](CC(=O)O)C(=O)O)C(C)C)[C@@H](C)CC; target = Small ubiquitin-related modifier 2 (Homo sapiens, UniProt P61956, C48A); test = isothermal titration calorimetry; conditions = concentration not given, pH 7.4, SUMO2 construct; endpoint = enthalpy change (ΔH); result = 2.12 ± 0.23 kcal/mol
SMILES = O=C1CC[C@H](N2Cc3c(ccc4c3OCC43CCN(C[C@@H]4CCC5(CCN(c6ccc([C@@H]7c8ccc(O)cc8CC[C@@H]7c7ccccc7)cc6)CC5)OC4)CC3)C2=O)C(=O)N1; target = Estrogen receptor (ESR1, Homo sapiens, UniProt P03372, Y537S); test = degrader, western blot; test system = MCF7 ESR1 Y537S; conditions = 10 and 100 nM, 7 h; endpoint = ER level reduction; result = > 80%
SMILES = CC[n+]1c(/C=C/C=C2/N(C)c3ccccc3C2(C)C)sc2ccccc21.[I-]; target = Genome polyprotein NS3 helicase domain; test = DNA binding, inhibitor; test system = hepatitis C virus; conditions = 100 µM, with: Cy5-dT15 DNA; endpoint = inhibition; result = 1%
SMILES = CCOc1ccc(NC(=O)O[C@@H](Cn2nc(C(C)C)cc2C(C)C)C(C)C)cc1; target = CHRNA7 (Homo sapiens, UniProt P36544); test = two-electrode voltage clamp; test system = Xenopus oocytes; conditions = concentration not given, with: ACh 1000 µM; endpoint = potentiation of ACh response; result = 2 to 3 fold
SMILES = O=C(COP(=O)(O)O)[C@@H](O)[C@H](O)[C@H](O)COP(=O)(O)O; target = SFN (Homo sapiens, UniProt P31947); test = thermal proteome profiling; test system = HepG2 cell lysate; conditions = concentration not given, 57 over 37 °C, mean; scale = reference: compound over control; endpoint = thermal stability ratio; result = 0.533
SMILES = NCCCCNCCCN; target = N-alpha-acetyltransferase 80 (NAA80, Homo sapiens, UniProt Q93015); test = substrate, DTNB; conditions = 2 mM, 30 min, 37 °C, with: acetyl-CoA 500 µM; endpoint = product formation; result = -0.7 µM
SMILES = O=c1cc(-c2ccc(O)c(O)c2)oc2cc(O)cc(O)c12; target = ESR1; test = array formation; test system = PRL-HeLa; scale = reference: EC50 ERβ over EC50 ERα; endpoint = selectivity ratio; result = 0.791
SMILES = C[C@]12CCC(=O)C=C1CC[C@@H]1[C@@H]2CC[C@@]2(C)[C@H]1CC[C@]2(O)C(=O)CO; target = Genome polyprotein NS3 helicase domain; test = DNA binding, inhibitor; test system = hepatitis C virus; conditions = 100 µM, with: Cy5-dT15 DNA; endpoint = inhibition; result = 0%
SMILES = Nc1ncnc2c1ncn2[C@@H]1O[C@H](COP(=O)(O)CP(=O)(O)OP(=O)(O)O)[C@@H](O)[C@H]1O; target = P2X purinoceptor 1 (P2RX1, Homo sapiens, UniProt P51575, L218T); test = saturation binding; test system = HEK293; conditions = 25 nM; endpoint = specific binding; result = 1610 CCPM and 1960 CCPM
SMILES = Nc1ccc(C(=O)O)cc1; target = BEST1, with wild-type BEST1 (Homo sapiens, UniProt O76090, A10T); test = whole-cell patch clamp; test system = HEK293 co-expressing WT and A10T mutant; conditions = concentration not given, membrane potential 40 mV; endpoint = current density; result = 21.6 pA/pF and 10 pA/pF and 12.8 pA/pF and 5.93 pA/pF and 13.4 pA/pF and 5.25 pA/pF
SMILES = CC(C)CCC[C@@H](C)[C@H]1CC[C@H]2[C@@H]3CC=C4C[C@@H](O)CC[C@]4(C)[C@H]3CC[C@]12C; target = uncharacterized protein (Toxoplasma gondii, UniProt D3XD39); test = item: [3H]compound; test system = COS-7 cells, transfected; conditions = concentration not given, with: human apoA-I; endpoint = lipid efflux; result = 6.7%
SMILES = Cc1nc(CSc2nc(SCc3ccc(C(C)C)cc3)nc(=O)[nH]2)cs1; target = TOP2A (Homo sapiens, UniProt P11388); test = decatenation; conditions = 125 µM, replicate 2; endpoint = decatenated DNA; result = 0%

For quick reference, copied from above:
SMILES = CCC(=O)NS(=O)(=O)c1ccc(-c2c(-c3ccccc3)noc2C)cc1; target = Nuclear receptor subfamily 4 group A member 3, ligand-binding domain (Homo sapiens, UniProt Q92570); test = reporter gene, Gal4 hybrid reporter; conditions = 50 µM; scale = reference: vehicle; endpoint = activation; result = 0.37 fold
SMILES = CC[C@H](C)[C@H](NC(=O)[C@H](CCC(=O)O)NC(=O)[C@H](CCC(=O)O)NC(=O)[C@@H]1CCCN1C(=O)[C@H](CC(=O)O)NC(=O)[C@H](C)NC(=O)[C@H](CCC(N)=O)NC(=O)[C@@H](NC(=O)[C@H](C)NC(=O)[C@@H](NC(=O)[C@H](CO)NC(=O)[C@@H](NC(=O)[C@H](CCCCN)NC(=O)[C@@H](N)Cc1ccc(O)cc1)[C@@H](C)O)C(C)C)[C@@H](C)O)C(=O)N[C@H](C(=O)N[C@H](C(=O)N[C@@H](CC(C)C)C(=O)N[C@@H](CC(=O)O)C(=O)N[C@@H](CC(=O)O)C(=O)N[C@@H](CC(=O)O)C(=O)N[C@@H](CC(=O)O)C(=O)O)C(C)C)[C@@H](C)CC; target = Small ubiquitin-related modifier 2 (Homo sapiens, UniProt P61956, C48A); test = isothermal titration calorimetry; conditions = concentration not given, pH 7.4, SUMO2 construct; endpoint = enthalpy change (ΔH); result = 2.12 ± 0.23 kcal/mol
SMILES = Cc1nc(CSc2nc(SCc3ccc(C(C)C)cc3)nc(=O)[nH]2)cs1; target = TOP2A (Homo sapiens, UniProt P11388); test = decatenation; conditions = 125 µM, replicate 2; endpoint = decatenated DNA; result = 0%
SMILES = Nc1ncnc2c1ncn2[C@@H]1O[C@H](COP(=O)(O)OP(=O)(O)OP(=O)(O)O)[C@@H](O)[C@H]1O; target = T1, ssDNA, aptamer; test = ITC; endpoint = Kd; result = 721 nM
